Assay results collected from several papers.
Protocols differ between the studies behind these lines. ± gives the spread as reported.
ESR1: Estrogen receptor (ESR1, Homo sapiens, UniProt P03372)
Chain of UniProt P03372 (whole entry, looked up): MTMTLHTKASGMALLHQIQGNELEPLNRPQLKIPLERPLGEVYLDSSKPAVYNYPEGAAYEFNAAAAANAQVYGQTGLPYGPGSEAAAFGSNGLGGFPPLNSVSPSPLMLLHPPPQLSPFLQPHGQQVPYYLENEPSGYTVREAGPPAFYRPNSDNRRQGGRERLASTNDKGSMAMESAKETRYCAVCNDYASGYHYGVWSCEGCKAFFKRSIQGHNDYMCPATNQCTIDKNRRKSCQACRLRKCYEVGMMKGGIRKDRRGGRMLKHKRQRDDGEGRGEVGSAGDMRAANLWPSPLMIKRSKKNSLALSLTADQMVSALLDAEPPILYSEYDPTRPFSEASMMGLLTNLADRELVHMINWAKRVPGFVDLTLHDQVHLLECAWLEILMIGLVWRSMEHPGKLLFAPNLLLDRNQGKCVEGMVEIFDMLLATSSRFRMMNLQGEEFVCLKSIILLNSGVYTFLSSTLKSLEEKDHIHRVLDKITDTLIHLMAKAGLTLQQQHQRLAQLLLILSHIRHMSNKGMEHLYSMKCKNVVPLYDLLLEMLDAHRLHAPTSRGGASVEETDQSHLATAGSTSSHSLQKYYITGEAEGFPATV
Aequorin-1 C152S/C159S/C187S: Aequorin-1 (Aequorea victoria, UniProt P07164, C152S/C159S/C187S)
Chain of UniProt P07164 (whole entry, unmodified, looked up): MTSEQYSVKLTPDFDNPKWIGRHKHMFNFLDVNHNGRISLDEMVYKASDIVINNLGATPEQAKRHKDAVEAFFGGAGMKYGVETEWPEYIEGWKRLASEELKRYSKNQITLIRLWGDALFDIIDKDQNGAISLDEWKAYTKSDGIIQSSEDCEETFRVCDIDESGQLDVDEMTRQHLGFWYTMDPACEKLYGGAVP
ESR2: Estrogen receptor beta (ESR2, Homo sapiens, UniProt Q92731)
Chain of UniProt Q92731 (whole entry, looked up): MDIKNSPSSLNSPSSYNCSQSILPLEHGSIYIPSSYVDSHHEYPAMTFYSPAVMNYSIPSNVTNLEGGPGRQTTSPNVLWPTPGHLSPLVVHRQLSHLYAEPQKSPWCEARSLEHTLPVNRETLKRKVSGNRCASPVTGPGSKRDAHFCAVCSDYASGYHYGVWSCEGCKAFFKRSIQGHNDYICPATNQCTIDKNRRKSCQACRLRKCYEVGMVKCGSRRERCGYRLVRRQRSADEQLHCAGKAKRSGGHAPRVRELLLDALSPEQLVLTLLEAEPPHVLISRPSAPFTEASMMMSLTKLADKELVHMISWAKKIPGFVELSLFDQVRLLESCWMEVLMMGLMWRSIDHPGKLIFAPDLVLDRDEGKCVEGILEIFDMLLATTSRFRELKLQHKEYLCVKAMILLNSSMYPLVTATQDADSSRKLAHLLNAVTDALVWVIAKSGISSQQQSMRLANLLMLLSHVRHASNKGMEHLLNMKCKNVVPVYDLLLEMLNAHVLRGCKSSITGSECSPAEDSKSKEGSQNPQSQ
CNR2: Cannabinoid receptor 2 (CNR2, Homo sapiens, UniProt P34972)
Chain of UniProt P34972 (whole entry, looked up): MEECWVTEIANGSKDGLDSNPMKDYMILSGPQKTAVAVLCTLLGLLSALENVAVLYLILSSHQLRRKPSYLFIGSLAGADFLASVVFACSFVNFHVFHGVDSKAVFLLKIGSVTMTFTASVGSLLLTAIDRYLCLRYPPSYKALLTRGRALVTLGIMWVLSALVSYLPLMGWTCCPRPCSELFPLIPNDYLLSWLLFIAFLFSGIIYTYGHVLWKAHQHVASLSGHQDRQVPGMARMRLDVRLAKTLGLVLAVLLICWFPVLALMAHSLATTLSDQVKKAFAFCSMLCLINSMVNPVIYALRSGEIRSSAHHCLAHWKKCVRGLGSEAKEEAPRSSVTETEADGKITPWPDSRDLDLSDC
OPRM1: Mu-type opioid receptor (OPRM1, Homo sapiens, UniProt P35372)
Chain of UniProt P35372 (whole entry, looked up): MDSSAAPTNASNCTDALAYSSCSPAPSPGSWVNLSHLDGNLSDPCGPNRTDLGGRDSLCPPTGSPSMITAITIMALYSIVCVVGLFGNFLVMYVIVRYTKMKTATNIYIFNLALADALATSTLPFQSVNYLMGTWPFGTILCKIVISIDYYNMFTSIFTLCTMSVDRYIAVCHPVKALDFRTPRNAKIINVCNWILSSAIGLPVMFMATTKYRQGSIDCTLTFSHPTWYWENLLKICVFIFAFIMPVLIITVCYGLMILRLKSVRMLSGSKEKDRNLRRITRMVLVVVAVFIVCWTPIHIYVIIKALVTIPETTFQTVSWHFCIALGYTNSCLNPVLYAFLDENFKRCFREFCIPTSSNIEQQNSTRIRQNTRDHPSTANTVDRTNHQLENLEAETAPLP
Chain of UniProt P41240 (whole entry, looked up): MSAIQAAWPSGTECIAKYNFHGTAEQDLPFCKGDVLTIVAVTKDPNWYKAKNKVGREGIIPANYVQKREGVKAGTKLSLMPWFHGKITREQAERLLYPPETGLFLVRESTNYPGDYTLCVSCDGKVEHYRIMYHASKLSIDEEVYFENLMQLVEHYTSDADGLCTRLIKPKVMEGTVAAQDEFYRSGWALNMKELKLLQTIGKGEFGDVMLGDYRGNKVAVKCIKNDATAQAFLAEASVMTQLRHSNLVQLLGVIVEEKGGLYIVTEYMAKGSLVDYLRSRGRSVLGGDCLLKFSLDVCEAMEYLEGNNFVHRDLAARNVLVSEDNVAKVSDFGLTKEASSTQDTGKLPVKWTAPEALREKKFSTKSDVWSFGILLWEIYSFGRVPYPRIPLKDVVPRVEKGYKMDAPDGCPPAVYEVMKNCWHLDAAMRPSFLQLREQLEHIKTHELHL
Chain of UniProt P14780 (whole entry, looked up): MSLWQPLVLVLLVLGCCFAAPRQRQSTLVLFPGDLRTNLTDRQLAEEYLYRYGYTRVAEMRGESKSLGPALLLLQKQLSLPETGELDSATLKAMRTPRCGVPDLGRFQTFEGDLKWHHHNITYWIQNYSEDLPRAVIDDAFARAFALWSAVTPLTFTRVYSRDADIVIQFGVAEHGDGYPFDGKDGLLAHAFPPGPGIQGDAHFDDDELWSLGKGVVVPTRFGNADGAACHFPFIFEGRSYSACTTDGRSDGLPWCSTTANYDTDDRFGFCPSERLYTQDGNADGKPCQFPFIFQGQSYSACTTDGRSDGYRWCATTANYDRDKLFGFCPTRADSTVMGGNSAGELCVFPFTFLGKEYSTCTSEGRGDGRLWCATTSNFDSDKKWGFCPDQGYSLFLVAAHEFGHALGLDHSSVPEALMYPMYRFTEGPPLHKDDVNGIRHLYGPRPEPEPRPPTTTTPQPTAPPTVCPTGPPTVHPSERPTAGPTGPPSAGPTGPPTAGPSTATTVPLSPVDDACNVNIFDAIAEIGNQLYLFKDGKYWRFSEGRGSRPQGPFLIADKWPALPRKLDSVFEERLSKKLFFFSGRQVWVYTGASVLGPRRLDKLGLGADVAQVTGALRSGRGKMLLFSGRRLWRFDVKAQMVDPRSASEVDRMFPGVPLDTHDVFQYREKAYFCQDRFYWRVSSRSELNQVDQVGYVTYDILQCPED
Chain of UniProt Q9Y2U9 (whole entry, looked up): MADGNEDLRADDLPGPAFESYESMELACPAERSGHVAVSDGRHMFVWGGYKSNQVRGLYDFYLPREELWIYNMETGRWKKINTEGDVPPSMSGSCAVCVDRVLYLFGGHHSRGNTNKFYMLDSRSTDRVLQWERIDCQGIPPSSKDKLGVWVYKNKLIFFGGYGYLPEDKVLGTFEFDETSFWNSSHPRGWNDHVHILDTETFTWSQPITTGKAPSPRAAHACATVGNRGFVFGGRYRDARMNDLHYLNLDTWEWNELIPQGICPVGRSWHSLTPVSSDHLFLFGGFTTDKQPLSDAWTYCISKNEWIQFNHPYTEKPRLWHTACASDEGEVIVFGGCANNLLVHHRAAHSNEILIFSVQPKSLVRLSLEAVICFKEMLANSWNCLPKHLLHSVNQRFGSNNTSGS
Chain of UniProt P41145 (whole entry, looked up): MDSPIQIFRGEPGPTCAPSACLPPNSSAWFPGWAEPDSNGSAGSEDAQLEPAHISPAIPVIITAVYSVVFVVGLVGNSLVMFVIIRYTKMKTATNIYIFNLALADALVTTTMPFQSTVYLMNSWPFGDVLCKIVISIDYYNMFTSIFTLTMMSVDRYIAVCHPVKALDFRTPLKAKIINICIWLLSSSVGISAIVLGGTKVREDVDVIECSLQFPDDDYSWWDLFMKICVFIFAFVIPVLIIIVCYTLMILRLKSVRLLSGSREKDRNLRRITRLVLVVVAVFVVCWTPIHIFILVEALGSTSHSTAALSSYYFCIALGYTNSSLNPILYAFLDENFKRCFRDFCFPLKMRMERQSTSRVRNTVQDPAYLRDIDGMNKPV
Chain of UniProt P14902 (whole entry, looked up): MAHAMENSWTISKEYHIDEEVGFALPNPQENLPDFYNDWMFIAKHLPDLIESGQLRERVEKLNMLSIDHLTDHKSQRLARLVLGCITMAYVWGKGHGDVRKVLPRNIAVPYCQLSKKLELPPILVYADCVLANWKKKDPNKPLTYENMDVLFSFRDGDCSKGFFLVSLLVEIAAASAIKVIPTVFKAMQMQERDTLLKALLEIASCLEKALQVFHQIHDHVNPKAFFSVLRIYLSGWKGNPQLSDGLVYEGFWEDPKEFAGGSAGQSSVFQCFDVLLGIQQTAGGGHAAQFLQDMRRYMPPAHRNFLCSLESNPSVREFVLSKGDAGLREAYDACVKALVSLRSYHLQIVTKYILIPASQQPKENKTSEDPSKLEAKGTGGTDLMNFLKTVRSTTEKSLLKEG
Chain of UniProt Q06520 (whole entry, looked up): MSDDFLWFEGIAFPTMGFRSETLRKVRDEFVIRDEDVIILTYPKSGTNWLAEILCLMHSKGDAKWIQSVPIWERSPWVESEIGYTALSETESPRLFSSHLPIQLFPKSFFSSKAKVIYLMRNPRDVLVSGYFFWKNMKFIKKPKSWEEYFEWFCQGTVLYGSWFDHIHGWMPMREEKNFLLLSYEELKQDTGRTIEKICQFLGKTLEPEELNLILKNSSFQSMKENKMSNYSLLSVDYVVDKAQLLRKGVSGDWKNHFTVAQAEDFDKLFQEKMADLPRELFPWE

Molecule	target or system	test	test system	conditions	how to read	endpoint	result
C[C@H](C(=O)NCCc1ccc(O)cc1)c1cccc(C(=O)c2ccccc2)c1	Luciferin 4-monooxygenase (Photinus pyralis, UniProt P08659)	enzyme activity, counter-	C3H10T1/2 cell lysate	concentration not given		luciferase inhibition	no effect
O[C@@H](CN1CC[C@H](CCOC(c2ccccc2)c2ccccc2)[C@@H](O)C1)c1ccc(F)cc1	Sodium-dependent serotonin transporter (Slc6a4, Rattus norvegicus, UniProt P31652)	serotonin uptake, inhibitor	rat cerebral cortex	added: [3H]5-HT		Ki	0.402 µM
O=Cc1ccc(CO)o1	Hemoglobin subunit alpha, with beta chain (HBA1, Homo sapiens, UniProt P69905)	binding, cation-exchange HPLC-UV/Vis		37 °C		association rate constant kon	0.128 M⁻¹ s⁻¹
Nc1nnc(S)s1	Peptide deformylase (def, Escherichia coli, UniProt P0A6K3)			500 µM, over 2 days, stock in DMSO	reference: control	remaining activity	94%
Oc1ccc(-c2cccc(Cl)c2)cc1Cl	Sulfotransferase 2A1 (SULT2A1, Homo sapiens, UniProt Q06520)	substrate, HPLC of PAP formation		substrate inhibition fit, added: PAPS 200 µM		Vmax	21.4 ± 18.3 nmol/min/mg
Oc1ccc(-c2ccc(-c3ccc(O)cc3Cl)[se]2)c(Cl)c1	ESR1	antagonist	HEK293T	highest tested concentration, added: estradiol 10 nM	reference: estradiol alone	efficacy	73 ± 8%
O=C(C(=O)c1ccccc1)c1ccccc1	Liver carboxylesterase 1 (CES1, Homo sapiens, UniProt P23141)	irreversible inhibitor		5× IC50 or 200 µM, 1 h, preincubation then inhibitor removal, added: o-nitrophenyl acetate substrate		remaining activity	0%
Oc1ccccc1-c1c(Cl)cc(Cl)cc1Cl	Aequorin-1 C152S/C159S/C187S	aequorin bioluminescence, inhibitor		2 h, added: coelenterazine		detection limit	34 µM
CC12CC3CC(C)(C1)CC(N)(C3)C2	Glutamate NMDA receptor; Grin1/Grin2a (Grin1/Grin2a, Rattus norvegicus, UniProt P35439+Q00959)	NMDA current unblock, whole-cell patch clamp	tsA201 cells	10 µM, holding potential -60 mV, added: 100 µM NMDA plus 10 µM glycine		current recovery after washout	94.2 ± 2.1%
Oc1ccc(-c2ccc(-c3ccc(O)cc3)[se]2)cc1	ESR2	antagonist	HEK293T	highest tested concentration, 24 h, added: estradiol 10 nM	reference: estradiol alone	efficacy	35 ± 4%
O=C1c2ccc(O)cc2OCC1c1ccc(O)cc1 (stereo not drawn)	UDP-glucuronosyltransferase 1A9 (UGT1A9, Homo sapiens, UniProt O60656)	substrate		pH 7.4, 37 °C		Vmax	0.628 nmol/min/mg
N=C(N)NCCC[C@H](N)C(=O)O	CRT (Plasmodium falciparum, UniProt W7FI62)	scintillation proximity	nanodiscs	1 mM, added: [3H]-chloroquine and [3H]-piperaquine		inhibition of binding	inhibited
Oc1c(Cl)cc(-c2ccccc2Cl)cc1Cl	Aequorin-1 C152S/C159S/C187S	aequorin bioluminescence, inhibitor		2 h, added: coelenterazine		detection limit	40 µM
CC1(NC(=O)c2nn(Cc3ccc(F)cc3)c3ccccc23)CCCN(CC(N)=O)C1 (stereo not drawn)	CNR2	calcium mobilization, agonist	CHO-K1 expressing Gαq16		reference: CP55,940 maximum	Emax	102 ± 3%
O=c1c2ccccc2nc(/C=C/c2cccnc2)n1Cc1ccccc1	rabbit myokinase, pyruvate kinase, lactate dehydrogenase	coupled enzyme activity, promiscuity counterscreen		90 min preincubation		lowest inhibitory concentration	> 12.5 µM
CC1N=C(c2ccccc2F)c2cc(N3CCOCC3)ccc2NC1=O (stereo not drawn)	Alpha-2A adrenergic receptor (ADRA2A, Homo sapiens, UniProt P08913)	ligand displacement, radioligand		10 µM		inhibition	-4%
Cc1ccc(Oc2ccc(C(=O)N[C@H](CN3CCN(c4cccc(O)c4)[C@@H](C)C3)C(C)C)cc2)cc1	OPRM1	antagonist	CHO	added: DAMGO		Ke	20 ± 6 nM
c1ccc([C@@H]2CO2)cc1	Epoxide hydrolase 1 (Solanum tuberosum, UniProt Q41415)	substrate, tryptophan fluorescence		(R)-enantiomer		apparent Kd	5800 ± 2000 µM
Cl.NCCc1ccc(S(=O)(=O)F)cc1	Serine protease hepsin (Hpn, Mus musculus, UniProt O35453)		mouse cells expressing hepsin	concentration not given, 30 min, serum-free		pericellular protease activity	inhibited
CC(C)C[C@@H](C=O)NC(=O)[C@H](CC(C)C)NC(=O)[C@H](CC(C)C)NC(=O)OCc1ccccc1	Indoleamine 2,3-dioxygenase 1 (IDO1, Homo sapiens, UniProt P14902)	inhibitor, western blot	HeLa	1 µM, 2 h pretreatment, then 24 h, added: IFN-γ 5 ng/mL plus degrader 5 µM		IDO1 degradation	inhibited

Molecule	target or system	test	test system	conditions	how to read	endpoint	result
CC(C)(NC(=O)c1nn(Cc2ccc(F)cc2)c2ccccc12)c1cccc(C(N)=O)c1	CNR2	calcium mobilization, agonist	CHO-K1 expressing Gαq16		reference: CP55,940 maximum	Emax	41 ± 2%
QSYNWFDHTRWI	HIV-1 neutralising antibody 4E10	phage binding, M13 phage ELISA	peptide	concentration not given	lower = stronger binding	binding titer	1.7e+08 M13/mL
Oc1ccc(-c2ccc(-c3ccc(O)cc3F)[se]2)c(F)c1	ESR2	antagonist	HEK293T	highest tested concentration, 24 h, added: estradiol 10 nM	reference: estradiol alone	efficacy	91 ± 6%
CC(C)[C@@H](CN1CCN(c2cccc(O)c2)[C@@H](C)C1)NC(=O)c1ccc(Oc2ccccc2)cc1	Kappa-type opioid receptor (OPRK1, Homo sapiens, UniProt P41145)	antagonist	CHO	added: U69593		Ke	0.85 ± 0.35 nM
CN1CCN(c2ccc(C(=O)Nc3cc(-c4nc5ccccc5[nH]4)n[nH]3)cc2)CC1	Forkhead box protein O1 (FOXO1, Homo sapiens, UniProt Q12778)	reporter gene	HEK293		reference: FOXO3, FOXO4, FOXA2 over FOXO1	selectivity ratio	> 200 fold
FEDSIYADIFIEE	Tyrosine-protein kinase CSK (CSK, Homo sapiens, UniProt P41240)	substrate, coupled enzyme	peptide	pH 7.4, room temperature, added: 1 mM ATP, 5 mM MnCl2		kcat/Km	320 M⁻¹ s⁻¹
NC(=O)N1CCC[C@H](NC(=O)c2nn(Cc3ccc(F)cc3)c3ccccc23)C1	CNR2	calcium mobilization, agonist	CHO-K1 expressing Gαq16		reference: CP55,940 maximum	Emax	74 ± 6%
WSHPQFEKGGGSGGG	Kelch domain-containing protein 2 (UniProt Q9Y2U9)	native mass spectrometry	peptide, 200 mM ammonium acetate	20 µM Kelch domain-containing protein 2, pH 7	reference: total Kelch domain-containing protein 2 signal	fraction of protein bound	0.3%
CC(C)C[C@H](NC(=O)CNC(=O)[C@H](CC(C)C)NC(=O)[C@@H]1CCCN1C(=O)CNC(=O)[C@H](Cc1ccccc1)NC(=O)Cc1ccc2ccccc2c1)C(=O)N[C@@H](CCCNC(=N)N)C(=O)N[C@@H](CO)C(=O)N[C@@H](CCCCN)C(=O)O	Matrix metalloproteinase-9 (MMP9, Homo sapiens, UniProt P14780)	substrate, HPLC		500 µM, 72 h, pH 7.5, 37 °C		hydrolysis product	77%
nitric oxide	H-NOX ferrous, Shewanella oneidensis	ligand, CO displacement				koff	0.2 s⁻¹
CC(C)[C@@H](CN1CCN(c2cccc(O)c2)[C@@H](C)C1)NC(=O)c1ccc(Oc2ccc(O)cc2)cc1	OPRM1	antagonist	CHO	added: DAMGO		Ke	71 ± 19 nM
RLGFYGCDLQD	Uncharacterized protein MJ1094 (Methanocaldococcus jannaschii, UniProt Q58494)	substrate, MALDI-TOF-MS	peptide	pH 9.0, no added anion, added: ATP		conversion	~50%
RYRDPTGMYY	Serine/threonine-protein kinase pim-1 (PIM1, Homo sapiens, UniProt P11309)	substrate, coupled enzyme	peptide	pH 7.4, room temperature, added: 1 mM ATP, 20 mM MgCl2		kcat/Km	1400 M⁻¹ s⁻¹
C/C(=C\c1csc(C)n1)[C@@H]1C[C@@H]2O[C@]2(C)CCC[C@H](C)[C@H](O)[C@@H](C)C(=O)C(C)(C)[C@@H](O)CC(=O)O1	microtubules (bovine, glutaraldehyde-fixed)	competitor		25 µM, added: [3H]peloruside A 2.5 µM		[3H]peloruside A bound per tubulin	0.78 ± 0.033
Cc1cc(-c2ccc(-c3ccc(O)c(C)c3)[se]2)ccc1O	ESR1	antagonist	HEK293T	highest tested concentration, added: estradiol 10 nM	reference: estradiol alone	efficacy	103 ± 28%
O=C(Cc1cccc(F)c1)NC1CCOC1=O (stereo not drawn)	Transcriptional activator protein LasR (lasR, Pseudomonas aeruginosa, UniProt P25084)	reporter gene, agonist	Escherichia coli JLD271/pJN105L/pSC11	100 µM	reference: OdDHL 100 µM	activation	-2%
Oc1ccc(-c2cc(-c3ccc(O)cc3)c(-c3ccc(O)cc3)[se]2)cc1	ESR2	antagonist	HEK293T	highest tested concentration, 24 h, added: estradiol 10 nM	reference: estradiol alone	efficacy	23 ± 3%
melittin		CD titration	POPC 90% POPG 10% vesicles	pH 7.0, 60 °C		free energy of partitioning	-6.77 kcal/mol
CC[C@H](C)[C@H](NC(=O)[C@H](CCCCN)NC(=O)[C@H](Cc1ccccc1)NC(=O)[C@H](CCCCNC(=O)[C@H](CC(C)C)NC(=O)[C@@H]1CCCN1C(=O)[C@H](CCCCN)NC(=O)CCS[C@@H]1O[C@H](CO)[C@H](O)[C@H](O)[C@H]1O)NC(=O)[C@H](CC(C)C)NC(=O)[C@@H]1CCCN1C(=O)[C@H](CCCCN)NC(=O)CCS[C@@H]1O[C@H](CO)[C@H](O)[C@H](O)[C@H]1O)C(N)=O	PA-I galactophilic lectin (lecA, Pseudomonas aeruginosa, UniProt Q05097)	isothermal titration calorimetry		pH 7.5, 25 °C, added: 25 mM CaCl2		ΔG	-7.6 ± 0.1 kcal/mol

Some of these lines once more:
Molecule	target or system	test	test system	conditions	how to read	endpoint	result
CC[C@H](C)[C@H](NC(=O)[C@H](CCCCN)NC(=O)[C@H](Cc1ccccc1)NC(=O)[C@H](CCCCNC(=O)[C@H](CC(C)C)NC(=O)[C@@H]1CCCN1C(=O)[C@H](CCCCN)NC(=O)CCS[C@@H]1O[C@H](CO)[C@H](O)[C@H](O)[C@H]1O)NC(=O)[C@H](CC(C)C)NC(=O)[C@@H]1CCCN1C(=O)[C@H](CCCCN)NC(=O)CCS[C@@H]1O[C@H](CO)[C@H](O)[C@H](O)[C@H]1O)C(N)=O	PA-I galactophilic lectin (lecA, Pseudomonas aeruginosa, UniProt Q05097)	isothermal titration calorimetry		pH 7.5, 25 °C, added: 25 mM CaCl2		ΔG	-7.6 ± 0.1 kcal/mol
QSYNWFDHTRWI	HIV-1 neutralising antibody 4E10	phage binding, M13 phage ELISA	peptide	concentration not given	lower = stronger binding	binding titer	1.7e+08 M13/mL
CC1(NC(=O)c2nn(Cc3ccc(F)cc3)c3ccccc23)CCCN(CC(N)=O)C1 (stereo not drawn)	CNR2	calcium mobilization, agonist	CHO-K1 expressing Gαq16		reference: CP55,940 maximum	Emax	102 ± 3%
CC(C)C[C@H](NC(=O)CNC(=O)[C@H](CC(C)C)NC(=O)[C@@H]1CCCN1C(=O)CNC(=O)[C@H](Cc1ccccc1)NC(=O)Cc1ccc2ccccc2c1)C(=O)N[C@@H](CCCNC(=N)N)C(=O)N[C@@H](CO)C(=O)N[C@@H](CCCCN)C(=O)O	Matrix metalloproteinase-9 (MMP9, Homo sapiens, UniProt P14780)	substrate, HPLC		500 µM, 72 h, pH 7.5, 37 °C		hydrolysis product	77%
O=Cc1ccc(CO)o1	Hemoglobin subunit alpha, with beta chain (HBA1, Homo sapiens, UniProt P69905)	binding, cation-exchange HPLC-UV/Vis		37 °C		association rate constant kon	0.128 M⁻¹ s⁻¹
nitric oxide	H-NOX ferrous, Shewanella oneidensis	ligand, CO displacement				koff	0.2 s⁻¹
